Measurements gathered from unrelated publications.
Every numbered part comes from another study and shows a few of its results, in no order.

Set 1 — observed: enzyme activity; mode: inhibitor; concentration: 0.5 µM; relative to: control
Target: Mitogen-activated protein kinase kinase kinase 9 (MAP3K9, Homo sapiens, UniProt P80192)
Sequence of UniProt P80192 (whole entry, looked up): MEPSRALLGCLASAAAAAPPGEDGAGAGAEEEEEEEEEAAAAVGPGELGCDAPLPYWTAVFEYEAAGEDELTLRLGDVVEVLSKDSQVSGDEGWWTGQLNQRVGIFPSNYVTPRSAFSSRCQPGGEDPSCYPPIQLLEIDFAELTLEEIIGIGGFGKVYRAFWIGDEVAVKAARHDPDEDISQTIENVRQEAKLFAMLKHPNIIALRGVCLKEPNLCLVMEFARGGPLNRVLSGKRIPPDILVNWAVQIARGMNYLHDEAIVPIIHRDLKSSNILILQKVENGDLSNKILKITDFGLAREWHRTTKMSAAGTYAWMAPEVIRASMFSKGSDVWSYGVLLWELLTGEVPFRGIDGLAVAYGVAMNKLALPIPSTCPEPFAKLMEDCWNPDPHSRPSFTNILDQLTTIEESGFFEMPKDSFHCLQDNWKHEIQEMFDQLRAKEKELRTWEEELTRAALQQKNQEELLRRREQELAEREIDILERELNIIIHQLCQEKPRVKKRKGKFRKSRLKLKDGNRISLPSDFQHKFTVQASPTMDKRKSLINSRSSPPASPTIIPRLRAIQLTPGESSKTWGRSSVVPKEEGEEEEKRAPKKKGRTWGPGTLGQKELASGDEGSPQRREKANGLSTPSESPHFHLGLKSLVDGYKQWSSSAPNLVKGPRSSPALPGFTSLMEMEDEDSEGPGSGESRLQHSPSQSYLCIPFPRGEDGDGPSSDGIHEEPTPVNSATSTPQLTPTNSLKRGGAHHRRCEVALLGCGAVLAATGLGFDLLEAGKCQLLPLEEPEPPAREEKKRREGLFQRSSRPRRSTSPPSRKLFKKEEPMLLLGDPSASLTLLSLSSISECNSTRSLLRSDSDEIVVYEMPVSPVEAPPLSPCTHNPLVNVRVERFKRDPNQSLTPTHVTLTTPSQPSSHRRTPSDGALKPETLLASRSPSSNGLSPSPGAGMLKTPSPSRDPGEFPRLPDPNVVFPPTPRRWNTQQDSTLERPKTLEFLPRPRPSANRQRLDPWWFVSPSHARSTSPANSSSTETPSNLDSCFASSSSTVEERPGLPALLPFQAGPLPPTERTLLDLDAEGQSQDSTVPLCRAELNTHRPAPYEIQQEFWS
SMILES | remaining activity [%]
CC[n+]1c(/C=C/N(C)c2ccccc2)n(-c2ccccc2)c2ccc(-c3nc4ccccc4s3)cc21 | 98.3
CCCC(=O)Oc1ccc2[nH]c(C(=O)c3cc4ccccc4[nH]3)cc2c1 | 97.7
NC(=O)c1ccc(N(C(N)=O)c2c(F)cccc2F)nc1-c1ccc(F)cc1F | 112
CC(=O)c1ccc(N2CCOCC2)cc1O | 112
Fc1ccc(-c2nc3n(c2-c2ccncc2)CCS3)cc1 | 83.6

Set 2 — cell line: mouse MPNST tumor cells; method: high-content nuclear imaging; measured: cell number; concentration: 10 µM; time: 12 h; notes: mean of 2 replicates; relative to: plate mean; direction: higher = more cells
Structure (SMILES) | nuclei count [z-score]
Nc1ccccc1Oc1ccc2c(N)nsc2c1 | -5.15
CC1COc2c(N3CCN(C)CC3)c(F)cc3c(=O)c(C(=O)O)cn1c23 (stereo not drawn) | -0.0154
CCCc1ncc(C[n+]2ccccc2C)c(N)n1 | 1.23
CNc1nc(NCc2ccc(NS(C)(=O)=O)cc2Cl)cc(-c2ccccn2)n1 | -1.46
CCOC(=O)CSc1nc2c(sc3ccccc32)c(=O)n1CCCN1CCCC1 | -0.152

Set 3 — organism: Sarcocystis neurona; observed: parasite activity; concentration: 10 µM; time: 96 h
SMILES | activity class
NS(=O)(=O)c1cc(C2(O)NC(=O)c3ccccc32)ccc1Cl (stereo not drawn) | inactive
C[C@]12CCC(=O)C=C1CC[C@@H]1[C@@H]2[C@@H](O)C[C@@]2(C)[C@H]1CC[C@]2(O)C(=O)CO | inactive
CC(C[N+](C)(C)C)OC(N)=O (stereo not drawn) | inactive
CC(COc1ccccc1)N(CCCl)Cc1ccccc1 (stereo not drawn) | inactive

Other studies, line by line
Structure (SMILES) | host | dose | notes | quantity | value
CC(C)n1cnc(-c2ccc(F)cc2)c1-c1ncc(C(=O)Nc2ccc(N3CCN(C)CC3)cc2)[nH]1 | human, idiopathic pulmonary fibrosis | 60 mg once daily | trial, treatment-emergent | patients with drug-induced liver injury | 0%

Repeated from above (set 1):
SMILES | remaining activity [%]
CCCC(=O)Oc1ccc2[nH]c(C(=O)c3cc4ccccc4[nH]3)cc2c1 | 97.7
